# Measurements collected from several papers.
# Organism: Staphylococcus aureus
Compound,test,test system,setting,MIC
CCCCN1C(=O)/C(=N\NC(=N)N)c2cc(C)ccc21,"microbial growth, broth dilution",,18 h,96 µg/mL
CN(C)c1cc(CNC(C)(C)C)c(O)c2c1C[C@H]1C[C@H]3[C@H](N(C)C)C(O)=C(C(N)=O)C(=O)[C@@]3(O)C(O)=C1C2=O,,"MRSA 5, Tet M ribosome protection",,4 µg/mL
NC[C@@H]1O[C@H](O[C@H]2[C@@H](O)[C@H](O[C@@H]3[C@@H](O)[C@H](N)C[C@H](N)[C@H]3O[C@H]3O[C@H](CO)[C@@H](OCC(O)CO)[C@H](O)[C@H]3N)O[C@@H]2CO)[C@H](N)[C@@H](O)[C@@H]1O (stereo partly drawn),broth microdilution,MRSA isolate AG 045,,16 µg/mL
CN(C)c1cc(CNCc2ccc(O)cc2)c(O)c2c1C[C@H]1C[C@H]3[C@H](N(C)C)C(O)=C(C(N)=O)C(=O)[C@@]3(O)C(O)=C1C2=O,,"MRSA 5, Tet M ribosome protection",,8 µg/mL
N#Cc1ccc2cccc(O)c2n1,"microbial growth, agar dilution",ATCC25923,,> 1500 µM
COc1ccccc1C(=O)c1c(-n2c(C(=O)c3ccccc3OC)cc(Cl)c2Cl)c(Cl)c(Cl)n1C,"microbial growth, broth dilution",NCTC8325,20 h,> 64 µg/mL
CC1COC(=O)N1/N=C/c1ccc([N+](=O)[O-])o1 (stereo not drawn),"microbial growth, broth dilution",ATCC29213,18 h,25 µg/mL
CN(C)c1cc(CN)c(O)c2c1C[C@H]1C[C@H]3[C@H](N(C)C)C(O)=C(C(N)=O)C(=O)[C@@]3(O)C(O)=C1C2=O,,"MRSA 5, Tet M ribosome protection",,32 µg/mL
CC1C=CC=CC(C)C2C=CC3CC(C)(O)C(O[N+](=O)[O-])C(C)C3C2C(=O)C(Cl)(Cl)C(=O)C(C)C(=O)O1 (stereo not drawn),"microbial growth, broth dilution",NEWMAN,,0.025 µg/mL
CN(C)c1cc(CNc2ccccc2)c(O)c2c1C[C@H]1C[C@H]3[C@H](N(C)C)C(O)=C(C(N)=O)C(=O)[C@@]3(O)C(O)=C1C2=O,,"MRSA 5, Tet M ribosome protection",,4 µg/mL
CNC(CC(C)C)C(=O)NC1C(=O)NC(CC(N)=O)C(=O)NC2C(=O)NC3C(=O)NC(C(=O)NC(C(=O)O)c4cc(O)cc(O)c4-c4cc3ccc4O)C(O)c3ccc(c(Cl)c3)Oc3cc2cc(c3OC2OC(CO)C(O)C(O)C2OC2CC(C)(NC(=O)CCCCCCCCC[n+]3ccccc3)C(O)C(C)O2)Oc2ccc(cc2Cl)C1O (stereo not drawn),agar dilution,MRSA clinical isolate MRSA3,,64 µg/mL
CCCCCCc1ccc(Oc2ccc(Oc3cccc(=O)[nH]3)cc2)c(O)c1,"microbial growth, broth dilution",,,10 µM
Nn1c(CCCc2ccccc2)nc2cc(Cl)ccc2c1=O,broth microdilution,RN6390B,,> 100 µM
CNC(CC(C)C)C(=O)NC1C(=O)NC(CC(N)=O)C(=O)NC2C(=O)NC3C(=O)NC(C(=O)NC(C(=O)O)c4cc(O)cc(O)c4-c4cc3ccc4O)C(O)c3ccc(c(Cl)c3)Oc3cc2cc(c3OC2OC(CO)C(O)C(O)C2OC2CC(C)(NC(=O)CCCC[N+]3(C)CCOCC3)C(O)C(C)O2)Oc2ccc(cc2Cl)C1O (stereo not drawn),agar dilution,MRSA clinical isolate MRSA3,,512 µg/mL
CCN(CC)CCCN1/C(=C/c2cc[n+](C)c3ccccc23)Sc2ccccc21,"microbial growth, broth dilution",ATCCBAA41 MRSA,,2 µg/mL
